# Assay results collected from several papers.
# Lines come from different studies, so protocols differ. “And” joins repeats or separate records; there may be more than shown. ± marks the error that the study gave.
# folP: Dihydropteroate synthase (folP, Bacteria, UniProt P0AC13)
# T1: RNA aptamer; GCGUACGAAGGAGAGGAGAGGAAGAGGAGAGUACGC
# T2: RNA aptamer; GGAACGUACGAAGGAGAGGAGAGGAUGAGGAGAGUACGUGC
# T3: RNA aptamer; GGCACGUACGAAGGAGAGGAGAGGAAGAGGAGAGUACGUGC
SMILES,target,test,test system,setting,how to read,quantity,value
CN1C=C/C(=C\c2sc3ccccc3[n+]2CC(=O)NCc2c(F)cccc2-n2cccn2)c2ccccc21,"T1, RNA aptamer",X-ray crystallography,,,,binding,binds
C[C@@H](Nc1nc(N[C@H](C)C(F)(F)F)nc(-c2cccc(Cl)n2)n1)C(F)(F)F,"Isocitrate dehydrogenase [NADP] cytoplasmic (IDH1, Homo sapiens, UniProt O75874, R132S)",item: 2-hydroxyglutarate,HCCC9810,,,maximal inhibition,91%
CC1(C)C[C@@H](Nc2cccc(-c3sc(C(=O)O)c(OCC(=O)O)c3Cl)c2)CCN1S(=O)(=O)Cc1cccc(NC(=O)CN2CCC(c3ccc4c(c3)oc(=O)n4C3CCC(=O)NC3=O)CC2)c1 (stereo partly shown),"Tyrosine-protein phosphatase non-receptor type 1 (PTPN1, Homo sapiens, UniProt P18031)","degrader, bio-layer interferometry",,"500 nM, biotinylated protein immobilised",higher = more binding,BLI binding response,0.354 a.u.
C=CC(=O)N1C[C@H](C)N(c2nc(OC[C@@]34CCCN3C[C@H](F)C4)nc3c(F)c(-c4ccc(F)c5sc(N)c(C#N)c45)c(C(F)(F)F)cc23)C[C@H]1C,"GTPase KRas, GppNHp-bound (KRAS, Homo sapiens, UniProt P01116)",SPR,,wild type,reference: GppNHp-bound over GDP-bound,off-rate increase,460 fold
CC(CC(=O)O)c1nn(C)c2nc(N)[nH]c(=O)c2c1=O (stereo not shown),folP,CETSA HiBiT,whole cells,,,melting temperature,71.5 °C
CNC(=N)NCCC[C@H](NC(=O)[C@H](CC(C)C)NC(=O)NNC(=O)[C@H](Cc1ccccc1)NC(=O)[C@@H](NC(=O)[C@H](CC(N)=O)NC(=O)[C@@H]1C[C@@H](O)CN1C(=O)[C@@H](Cc1ccc(O)cc1)NC(C)=O)[C@@H](C)O)C(=O)N[C@@H](Cc1c[nH]c2ccccc12)C(N)=O,"KiSS-1 receptor (KISS1R, Homo sapiens, UniProt Q969F8, Y302A)","inositol phosphate, agonist",HEK293,,,Emax,95.4%
Cc1cc(C)cc(COc2cc3c(cc2OCc2cc(C)cc(C)c2)C2CC(O)(Cc4cn(CCOCCOCCNC(=O)CCCCC5SCC6NC(=O)NC65)nn4)CC(C)N2CC3)c1 (stereo not shown),"RAB21 (Homo sapiens, UniProt Q9UL25)",biotinylated probe pull-down,,10 µM probe,reference: heavy over light,SILAC ratio,3.26
CC[C@H](C)[C@@H]1NC(=O)[C@H](C)NC(=O)[C@H](CCCCN)NC(=O)[C@@H](NC(=O)CN)CSSC[C@@H]2NC(=O)CNC(=O)[C@H](C)NC(=O)[C@H](CC(C)C)NC(=O)[C@@H]3CSSC[C@@H](C(=O)NCC(=O)O)NC(=O)[C@H](Cc4ccccc4)NC(=O)CNC(=O)[C@H](CC(N)=O)NC(=O)[C@@H]4CCCN4C(=O)CNC(=O)[C@H](CSSC[C@H](NC(=O)[C@H](CCCNC(=N)N)NC(=O)[C@H](CCC(N)=O)NC(=O)[C@@H]4CCCN4C(=O)[C@H](CCCCN)NC(=O)[C@H](CC(C)C)NC(=O)[C@H](CC(C)C)NC(=O)[C@H](CC(N)=O)NC1=O)C(=O)N[C@@H](CCCCN)C(=O)N[C@@H](CCC(N)=O)C(=O)N[C@@H](CC(=O)O)C(=O)N[C@@H](CO)C(=O)N[C@@H](CC(=O)O)C(=O)N3)NC(=O)[C@H](C(C)C)NC2=O,"Low-density lipoprotein receptor-related protein 6, E1 domain (LRP6, Homo sapiens, UniProt O75581)","binding, SPR",,pH 7.5,,kon,320000 ± 30000 M⁻¹ s⁻¹
COc1ccc(-c2ccc3c(c2)C(=Cc2sc4ccccc4[n+]2CC(=O)NCCOCCOCCOCCNC(=O)CCCC[C@@H]2SC[C@@H]4NC(=O)N[C@@H]42)C=CN3C)cc1,"T2, RNA aptamer",fluorescence titration,,,,Kd,0.045 nM
Cn1nc(CCCC(=O)O)c(=O)c2c(=O)[nH]c(N)nc21,folP,CETSA HiBiT,whole cells,,,melting temperature,64.7 °C
CC[C@H](C)[C@H](NC(=O)[C@H](CCC(=O)O)NC(=O)[C@H](CCCNC(=N)N)NC(=O)[C@H](C)NC(=O)[C@H](Cc1c[nH]c2ccccc12)NC(=O)[C@H](CCC(=O)O)NC(=O)[C@H](CCC(=O)O)NC(=O)[C@H](CCC(=O)O)NC(C)=O)C(=O)NCC(=O)N[C@@H](C)C(=O)N[C@@H](CCC(N)=O)C(=O)N[C@@H](CC(C)C)C(=O)N[C@@H](CCCNC(=N)N)C(=O)N[C@@H](CCCNC(=N)N)C(=O)N[C@@H](C)C(=O)NCC(=O)N[C@@H](CC(=O)O)C(=O)N[C@@H](CC(=O)O)C(=O)N[C@@H](CC(C)C)C(=O)N[C@@H](CC(N)=O)C(=O)N[C@@H](C)C(=O)N[C@@H](CCC(N)=O)C(=O)N[C@@H](Cc1ccc(O)cc1)C(=O)N[C@@H](CCC(=O)O)C(=O)N[C@@H](CCCNC(=N)N)C(=O)N[C@@H](CCCNC(=N)N)C(=O)N[C@@H](CCCNC(=N)N)C(N)=O,"Induced myeloid leukemia cell differentiation protein Mcl-1 homolog, residues 152-308 (Mus musculus, UniProt P97287)","binding, SPR",,0.2% DMSO,,koff,0.0002 s⁻¹
"CC(=O)C12NC(C)(C)CC1(C)C(=O)C1=C2c2c(c3c4n2C(C)(C)CC2=C4C4(CC(C)(C)NC(C)(C4)C2=O)CC3(C)C)C(=O)C(C)(C)N1 (single isomer, unassigned; (+))","Potassium voltage-gated channel subfamily KQT member 3 (KCNQ3, Homo sapiens, UniProt O43525)","ion current, whole-cell patch clamp",HEK293T,40 µM,reference: before compound,relative current,0.97 ± 0.01
CC(O)(c1cccc(F)c1)c1cn(C2OC(CO)C(O)C(O)C2O)nn1 (stereo not shown),"Protein Mdm4 (MDM4, Homo sapiens, UniProt O15151)","thermal stability, DSF",,30 µM,,ΔTm,1.2 °C
Cc1ccc2c(c1)N(C)C=CC2=Cc1sc2ccccc2[n+]1C,"T3, RNA aptamer",fluorescence titration,,,,Kd,7.77 nM
COc1ccccc1-c1ccncc1C(=O)Nc1nnc(OCc2ccc(Cl)cc2)s1,"RecQ-like DNA helicase BLM, residues 636–1298 (BLM, Homo sapiens, UniProt P54132)","ATPase activity, ADP-Glo",,"0.015 µM, 1 h",,remaining activity,101%
C=C(NC(=O)c1csc(-c2cccnc2)n1)C(=O)NC(=C)C(=O)OC,"Thioredoxin-dependent peroxide reductase, mitochondrial (PRDX3, Homo sapiens, UniProt P30048, A142E/C108S/S139E)","MALDI-TOF, item: CR adduct",PRDX3 C108S,"200 µM, 37 °C",,adduct formation rate,0.0094 ± 0.0004 min⁻¹
CCCCCCCO[C@H]1CO[C@H](CO)[C@@H](O)[C@H](O)[C@@H]1O,"Type 1 fimbrin D-mannose specific adhesin, lectin domain (fimH, Escherichia coli K-12, UniProt P08191)",isothermal titration calorimetry,,"concentration not given, 15 °C",,enthalpy change (ΔH obs),-9.56 kcal/mol
CNC1C[S+]2CC[S+]3CC[S+](C1)[Ru-4]321([N]=C=S)[n]2c3ccc(OC)cc3c3c4c(c5cc(F)c[n+]1c5c32)C(=O)NC4=O (stereo not shown),"Tyrosine-protein kinase ABL1, phosphorylated (ABL1, Homo sapiens, UniProt P00519, M351T)",KinomeScan,,0.1 µM,reference: untreated,remaining binding,100%
COc1cc(C2C(NC(=O)c3ccc(NC(=O)OC(C)(C)C)cc3)(C(=O)O)C(c3ccc(OC(=O)c4cccs4)c(OC)c3)C2(NC(=O)c2ccc(NC(=O)OC(C)(C)C)cc2)C(=O)O)ccc1OC(=O)c1cccs1 (stereo not shown),"Glucagon-like peptide 1 receptor (GLP1R, Homo sapiens, UniProt P43220, Y152A)","cAMP accumulation, agonist",,receptor mutant,reference: wild type,Emax,8.66 ± 4.22%
N#Cc1cnc2sc(C(=O)O)cc2c1N1CCc2[nH]nc(C(=O)N[C@@H](CC(=O)NCCOCCN3CCOCC3)c3cccc(Br)c3)c2C1,"Interleukin-1 receptor-like 2 (IL1RL2, Homo sapiens, UniProt Q9HB29)","SEAP reporter gene, antagonist",HEK-Blue IL-36R cells,"33.33 µM, 6 h, with: IL-36β 0.003 ng/mL",reference: untreated,remaining activity,99.6%
Cc1n[nH]c2nc(N)[nH]c(=O)c2c1=O,folP,CETSA HiBiT,"Escherichia coli, whole cells",concentration not given,reference: DMSO,melting temperature shift,1.13 °C
CCC1Sc2ccc(S(=O)(=O)CCC(=O)Nc3cccc4ccccc34)cc2NC1=O (stereo not shown),"P2X purinoceptor 7 (Ailuropoda melanoleuca, UniProt G1M6C4)","ATP-evoked current, inhibitor, whole-cell patch clamp",HEK293 transfected,"1 µM, wild type",,remaining current,74.9%
COC(=O)[C@@]1(C)C=C(C(=O)Nc2cccc(C(=O)Nc3ccc(Nc4nccc(-c5cccnc5)n4)c(C)c3)c2)C(=O)CC1,"Mitogen-activated protein kinase 1 (MAPK1, Homo sapiens, UniProt P28482)","kinase activity, inhibitor",,"400 µM, unit not given",reference: no inhibitor,remaining activity,0.299
CN(Cc1nn(C)c2nc(N)[nH]c(=O)c2c1=O)c1nnn[nH]1,folP,CETSA HiBiT,"Escherichia coli, whole cells",,,melting temperature,59.3 °C
O=C1c2sc(-c3ccc(N4CCC(F)C4)nc3F)nc2CCN1c1cccnc1 (stereo not shown),"TAR DNA-binding protein 43, aggregated (TARDBP, Homo sapiens, UniProt Q13148)",saturation autoradiography,"human, FTLD-TDP type A brain sections",0.097 nM,,specific binding,3.49 nM
CC(C=CC=C(C)C=CC1=C(C)CCCC1(C)C)=CC=O,"Rhodopsin (RHO, Homo sapiens, UniProt P08100, T17M)","immunostaining, item: opsin",COS-7 transfected,"0.10 µM, unit not given",reference: surface over total stained cells,plasma membrane localization,0
CCCCCCCCCCCCC/C=C/C=O,"MMS19 nucleotide excision repair protein homolog (MMS19, Homo sapiens, UniProt Q96T76)",competitive isoTOP-ABPP,Ramos soluble proteome,"100 µM, 60 min, with: iodoacetamide probe","reference: DMSO over compound-treated, higher = stronger cysteine blockade",isoTOP-ABPP competition ratio,1
Cn1nc(CO)c(=O)c2c(=O)[nH]c(N)nc21,folP,CETSA HiBiT,whole cells,,,melting temperature,67.2 °C
CC(=O)N[C@@H](CO)C(=O)N[C@@H](CC(C)C)C(=O)N[C@@H](CCC(=O)O)C(=O)N[C@@H](CCC(=O)O)C(=O)N1CCC[C@H]1C(=O)N[C@@H](Cc1c[nH]cn1)C(=O)N[C@@H](COP(=O)(O)O)C(=O)N1CCC[C@H]1C(=O)N[C@@H](CCC(=O)O)C(=O)N[C@H](C(=O)NCC(=O)N[C@@H](CCC(=O)O)C(=O)N[C@@H](CCCCN)C(=O)N[C@H](C(=O)N[C@H](C(=O)N[C@@H](C)C(=O)NCC(=O)N[C@@H](CCC(=O)O)C(=O)N[C@H](C(=O)N[C@@H](CC(N)=O)C(N)=O)C(C)C)C(C)C)C(C)C)[C@@H](C)O,"Kelch-like ECH-associated protein 1, Kelch domain (KEAP1, Homo sapiens, UniProt Q14145)","binding, ITC",,"pH 7, 298.15 K",,TΔS,-2.48 kcal/mol
Cc1nn(C)c2nc(N)[nH]c(=O)c2c1=O,folP,CETSA HiBiT,"Escherichia coli, whole cells",concentration not given,reference: whole cell over lysate ΔTm,target engagement efficiency,70.3%
CCC1(CC)C(=O)N(c2cccc(C)c2)C1=O,"Dipeptidyl peptidase 9 (DPP9, Homo sapiens, UniProt Q86TI2)","enzyme activity, inhibitor",,5 µM,,activity vs control,> 90%
CCCCCC(O)/C=C/C=O (stereo not shown),"Methylosome protein WDR77 (WDR77, Homo sapiens, UniProt Q9BQA1)","competitive isoTOP-ABPP, item: WDR77 cysteine peptide",Ramos soluble proteome,"100 µM, with: iodoacetamide probe","reference: DMSO over compound-treated, higher = stronger cysteine blockade",isoTOP-ABPP competition ratio,1.5
Cc1nc(-c2c[nH]c(C(=O)Nc3ncccc3O)c2)cs1,"Trypsin-3 (Homo sapiens, UniProt P35030, W279Q)","enzyme activity, mixed inhibitor, steady-state kinetics",,,higher = weaker ES binding,alpha factor,5 and 7
CC1(C)CC[C@@]2(CO)C(=C3C=C[C@@H]4[C@@]5(C)CC[C@H](O)[C@@](C)(CO)[C@@H]5CC[C@@]4(C)[C@]3(C)C[C@@H]2O)C1,"NAD-dependent protein deacetylase sirtuin-1 (SIRT1, Homo sapiens, UniProt Q96EB6)","binding, microscale thermophoresis",,37.6 nM,,MST normalised fluorescence,910 a.u.
